Published values gathered from unrelated publications.
Protocols differ between the studies behind these lines. Values joined by “and” are separate records of one study, mostly repeats; a detail may differ. ± marks the error that the study gave.

O=c1cc(-c2ccccc2)oc2cc(O)c(O)c(O)c12 — foam cell formation (H&E staining; ApoE-/- mouse, aortic sections; oral gavage, dose not given): decreased
C[C@@H]1C[C@H]2[C@@H]3CCC4=CC(=O)C=C[C@]4(C)[C@@]3(F)[C@@H](O)C[C@]2(C)[C@@]1(O)C(=O)CO — ear thickness difference (BALB/c mice, oxazolone atopic dermatitis; topical, 20 mg/ear, 192 h, day 8, unit not given; baseline: vehicle): -0.221
COc1cc(Nc2ncc3c(n2)-c2ccc(Cl)cc2C(c2c(F)cccc2OC)=NC3)ccc1C(=O)O — relative tumour volume T/C (mouse, OS-1 osteosarcoma xenograft; oral, 10.4 mg/kg, day 21; baseline: vehicle): 1.57
O=C1Nc2ccccc2C1=Cc1ccccn1 — occlusion time prolongation (ferric chloride carotid thrombosis; rat; oral, 11.2 mg/kg, 2 h before thrombosis): 114%
CSCCNc1nc(SCCC(F)(F)F)nc2c1ncn2[C@@H]1O[C@H](COP(=O)(O)OP(=O)(O)C(Cl)(Cl)P(=O)(O)O)[C@@H](O)[C@H]1O — inhibition (platelet aggregation, light transmission aggregometry; human patients, platelet-rich plasma; dose not given, 1 h, with: TRAP 5 µM): 25.3 ± 27.8%
CC(C)NCC(O)c1ccc(O)c(O)c1 (stereo not drawn) — sarcomere length (ventricular cardiomyocytes, C57BL/6 mouse; dose not given, 0.036 s): 1.72 µm
CO[C@H]1CC[C@H](N2C(=O)CNc3ncc(-c4ccc(C(C)(C)O)nc4)nc32)CC1 — pAKT change from baseline (flow cytometry; stimulated monocytes, human, blood; 30 mg single dose, 5 h, median; baseline: baseline): -51.1%
O=C1Nc2cc3[nH]nc(-c4ccncc4)c3cc2CN1Cc1ccccc1 — partial response, best response (RECIST v1.1; human, relapsed or refractory advanced solid tumours; intravenous, 5.4 mg/kg, pooled schedules): 0%
NC/C(=C\F)COc1cccc(Cn2c(=S)[nH]c(=O)c3[nH]cnc32)c1 — exudate volume (Mus musculus, carrageenan air pouch exudate; 10 mg/kg, 12 h, λ-carrageenan-induced oedema): 3 mL and 2 mL and 3.2 mL and 2.8 mL and 2.6 mL and 3.3 mL
CN[C@@H]1COc2c(S(=O)(=O)NC(=O)Nc3c4c(cc5c3CCC5)CCC4)cnn2C1 — inhibition (item: IL-1β; human participants, whole blood ex vivo; 300 mg twice daily, multiple doses, 148 h, with: LPS/ATP; baseline: baseline): 99.7%
CC(C)(C)c1sc2ncnc(Oc3c(F)cccc3OC(F)(F)F)c2c1-c1ccc(Cl)cc1 — ED50 (antihyperalgesia, paw withdrawal latency; MrgprX1 mice, CCI model; oral): 8.94 mg/kg
CN(C)C(=O)Nc1cccc(-c2ccc(N(C)C)cc2)c1 — change in visceral fat (MRI; mouse, high-fat diet; dose not given): 0.246 g and -0.734 g and -0.00229 g and -0.499 g and 0.223 g
c1ccc(-c2n[nH]cc2-c2ccnc3ccccc23)nc1 — log2 fold change (kinase binding, competitor, MIB/MS competition, item: AKL1; Candida albicans cell lysate; 1 µM; baseline: DMSO): 1.28
NC(=O)c1cnc2[nH]ccc2c1N[C@@H]1[C@@H]2CC3C[C@H]1C[C@@](O)(C3)C2 — CD8+ central memory change (flow cytometry; Japanese healthy men, blood; oral, 10 mg twice daily, 72 h after day 7 dose; baseline: baseline): -0.33%
CCCn1cc(C)c2c(=O)[nH]c(-c3cc(S(=O)(=O)N4CCN(CC)CC4)ccc3OCC)nc21 — maximal mean SBP decrease (supine; concentration not given, 0 to 4 h; baseline: baseline): 6.26 mmHg
CC(C)C[C@H](NC(=O)[C@@H](Cc1c[nH]c2ccccc12)NC(=O)[C@H](Cc1ccc(O)cc1)NC(=O)[C@H](CO)NC(=O)[C@H](Cc1c[nH]c2ccccc12)NC(=O)[C@H](Cc1c[nH]cn1)NC(=O)[C@@H]1CCC(=O)N1)C(=O)N[C@@H](CCCNC(=N)N)C(=O)N1CCC[C@H]1C(=O)NCC(N)=O — girls at breast stage (Chinese girls, central precocious puberty; intramuscular, 22.5 mg day 1, month 6, month 6, Tanner stage IV): 6.5%
CN1CC(Oc2cnc(C#N)cc2-c2ccn3nc(NC(=O)C4CC4)cc3c2)C1 — IC50 (TNF release; C57BL/6 mouse, LPS challenge, plasma; oral, 1 and 80 mg/kg, dosed 1 h before LPS): 390 nM
CN(C)C(=O)Oc1cccc([N+](C)(C)C)c1 — train-of-four ratio (neuromuscular block reversal; rat; dose not given, 18.5 (unit not given), with: cisatracurium; baseline: T1 twitch): 98
COc1ncc(-c2nc3c(n2C(C)C)[C@H](c2ccc(Cl)cc2)N(c2cc(Cl)cn(C)c2=O)C3=O)c(OC)n1 — best overall response (International Working Group criteria; human acute myeloid leukemia patients; oral, 120 mg, response CRi, high-dose, recommended dose for expansion): 0%
CC1(C)CCC(CN2CCN(c3ccc(C(=O)NS(=O)(=O)c4ccc(NCC5CCOCC5)c([N+](=O)[O-])c4)c(Oc4cnc5[nH]ccc5c4)c3)CC2)=C(c2ccc(Cl)cc2)C1 — EC50 (cell killing; canine lymph node CD21+ B cells, dog 30; 24 h): 59 nM
CN(C)C(=O)c1cc2cnc(Nc3ccc(N4CCNCC4)cn3)nc2n1C1CCCC1 — GSEA enrichment score (RNA-seq GSEA, item: HALLMARK_COMPLEMENT; MB002 tumour; concentration not given, in vivo; baseline: vehicle, direction not given): -0.3
Cc1n[nH]c2ccc(-c3cc(OC[C@@H](N)Cc4ccccc4)cnc3-c3ccoc3)cc12 — log2 fold change (kinase binding, competitor, MIB/MS competition, item: AKL1; Candida albicans cell lysate; 10 µM; baseline: DMSO): -5.4
C[C@H](NC(=O)[C@@H]1CCCN1C(=O)[C@@H]1CCCN1C(=O)[C@@H](O)[C@H](N)Cc1ccccc1)C(N)=O — cleavage inhibition (protease activity; HEK-293T cell lysate; 10 µM, with: XP-AMC 500 µM): no inhibition
N#Cc1ccc2c(c1)[C@H]1CCCN(C(=O)c3ccc4[nH]cnc4c3)[C@H]1C2 — change, HOMA-beta, from baseline (human, Phase II trial; oral, 240 mg once daily, day 28, adjusted mean, SE): 0.7%
CN[C@@H](C)C(=O)N[C@H]1CN(S(=O)(=O)c2cccc(S(=O)(=O)N3CC[C@H]4CC[C@@H](C(=O)NC(c5ccccc5)c5ccccc5)N4C(=O)[C@@H](NC(=O)[C@H](C)NC)C3)c2)CC[C@H]2CC[C@@H](C(=O)NC(c3ccccc3)c3ccccc3)N2C1=O — maintenance monotherapy duration (human; 20 mg): 8 months
CC(C)[C@H](NC(=O)[C@H](Cc1ccc(O)cc1)NC(=O)[C@H](Cc1ccc(O)cc1)NC(=O)[C@@H]1CCCN1C(=O)[C@H](CCC(=O)O)NC(=O)[C@H](CCC(=O)O)NC(=O)[C@H](Cc1c[nH]c2ccccc12)NC(=O)[C@@H]1CCCN1C(=O)[C@@H](NC(=O)[C@H](CCC(N)=O)NC(=O)c1ccc2c(c1)C(=O)OC21c2ccc(O)cc2Oc2cc(O)ccc21)C(C)C)C(=O)N[C@H](C(=O)N[C@@H](CCCCN)C(=O)N[C@@H](CCCCN)C(=O)N[C@@H](CO)C(=O)N[C@@H](CO)C(=O)NCC(=O)NCC(N)=O)C(C)C — share of responses (nerve branching; human head and neck surgery, nerves; 500 mg, very much improved; baseline: white light): 7.7%
N#Cc1ccn2c(-c3ccncc3)c(-c3ccc(F)cc3)nc2c1 — log2 fold change (kinase binding, competitor, MIB/MS competition, item: PKH2; Candida albicans cell lysate; 10 µM; baseline: DMSO): -0.41
O=C(OC(C(F)(F)F)C(F)(F)F)N1CCN(Cc2cccc(Oc3ccccc3)c2)CC1 — k3 (PET blocking study; rhesus monkey, brain CB; 0.03 mg/kg, compound pretreatment, with: [18F]T-401 tracer): 0.039 min⁻¹
OC(CCN1CCCCC1)(c1ccccc1)C1CC2C=CC1C2 (stereo not drawn) — EEG power, delta, Fz-Cz (resting-state EEG; healthy elderly humans; oral, 2 mg, eyes closed, LS mean): 6.5 µV²
C=CCn1c(=O)c2cnc(Nc3ccc(N4CCN(C)CC4)cc3)nc2n1-c1ccc2c(n1)[C@@](O)(CC)CC2 — tumour growth inhibition (NCI-H1299 xenograft, BALB/c nude mice; oral, 80 mg/kg once daily x 28, day 23; baseline: vehicle): 39.7%
C[C@H]1C[C@H]2CSC(N)=N[C@@]2(c2nc(NC(=O)c3ccc(OC(F)F)cn3)cs2)CO1 — percent change from baseline (item: Aβx-40; healthy adults, plasma; 400 mg single dose, 24 h post-dose; baseline: placebo): -67.4%
N#Cc1ccc2c(-c3ccncc3)c(-c3ccc(F)cc3)nn2c1 — log2 fold change (kinase binding, competitor, MIB/MS competition, item: FPK1; Candida albicans cell lysate; 1 µM; baseline: DMSO): 0.0646
N=C(N)NCCC[C@H](NC(=O)[C@H](CCCNC(=N)N)NC(=O)[C@H](CCCCN)NC(=O)[C@H](CCC(N)=O)NC(=O)[C@H](CCCCN)NC(=O)[C@H](Cc1ccc(O)cc1)NC(=O)[C@@H](N)CCCCN)C(=O)N[C@@H](CO)C(=O)N[C@@H](Cc1ccc(O)cc1)C(=O)N[C@@H](CCCCN)C(=O)O — Schiff sensitivity score change (air evaporative stimulus; dentin hypersensitivity patients; 2.5 µg/tooth single, day 22, phase 1/2a; baseline: baseline, direction not given): -0.67 ± 0.82
C[C@@H](NC(=O)N1C(=O)[C@H](Cc2ccnc(N)c2)[C@H]1C(=O)O)C1CCCCC1 — time to aPTT Emax (human; iv infusion, 0.6 mg/kg/h, 24 h; baseline: baseline): 48 h
Cn1nnc2c(C(N)=O)ncn2c1=O — apoptotic cells (cleaved caspase-3 staining; mouse PDGFB-driven RCAS/tv-a glioma model; dose not given, end stage): no effect
CCOc1cc([C@@H](CS(C)(=O)=O)N2C(=O)c3cccc(NC(C)=O)c3C2=O)ccc1OC — ear thickness difference (Balb/c mice, oxazolone atopic dermatitis; day 17, unit not given; baseline: vehicle): -0.132
O=C(O)CNC(=O)Cc1ccccc1 — sarcomere length (ventricular cardiomyocytes, C57BL/6 mouse; dose not given, 0.456 s): 1.71 µm
C[C@H]1O[C@@H](O[C@H]2CC[C@@]3(C)[C@@H](CC[C@]4(C)[C@@H]3C=C[C@]35OC[C@@]6(CCC(C)(C)C[C@H]63)[C@@H](O)C[C@]54C)[C@]2(C)CO)[C@H](O)[C@@H](O[C@@H]2O[C@H](CO)[C@@H](O)[C@H](O)[C@H]2O)[C@H]1O — AST/ALT ratio (chronic-plus-binge ethanol-fed mice, plasma; dose not given, medium dose; baseline: AST over ALT): 1.53 and 1.61 and 1.23 and 1.75
N#CC[C@H](C1CCCC1)n1cc(-c2ncnc3[nH]ccc23)cn1 — ear thickness difference (Balb/c mice, oxazolone atopic dermatitis; day 11, unit not given; baseline: vehicle): -0.121
Cn1cc(Nc2nccc(-c3ccc4c(c3)CN(C3COC3)CC[C@H]4NC(=O)c3cn(C(C)(C)C)nn3)n2)cn1 — pathway activation z-score (item: sumoylation pathway; splenic B cells, mice; 30 mg/kg, IgD-activated in vivo; baseline: vehicle, direction not given): 0.5
C[C@H](Oc1ccc(Br)cc1-c1ccon1)C(=O)O — peak amplitude change (muscle velocity recovery cycles; human, tibialis anterior muscle; 1200 mg single dose, 3.5 h post-dose, frequency ramp, last response at 30 Hz): 80.7%
CCCCC1(CCCC)CN(c2ccccc2)c2cc(SC)c(OCC(=O)N[C@@H](C(=O)NCC(=O)O)c3ccccc3)cc2S(=O)(=O)C1 — Fxr mRNA level (qPCR; male mice, ileum; 1 mg/kg, after mixed meal tolerance test; baseline: PBS): no effect

Excerpt of the above:
OC(CCN1CCCCC1)(c1ccccc1)C1CC2C=CC1C2 (stereo not drawn) — EEG power, delta, Fz-Cz (resting-state EEG; healthy elderly humans; oral, 2 mg, eyes closed, LS mean): 6.5 µV²
Cn1cc(Nc2nccc(-c3ccc4c(c3)CN(C3COC3)CC[C@H]4NC(=O)c3cn(C(C)(C)C)nn3)n2)cn1 — pathway activation z-score (item: sumoylation pathway; splenic B cells, mice; 30 mg/kg, IgD-activated in vivo; baseline: vehicle, direction not given): 0.5
O=C(OC(C(F)(F)F)C(F)(F)F)N1CCN(Cc2cccc(Oc3ccccc3)c2)CC1 — k3 (PET blocking study; rhesus monkey, brain CB; 0.03 mg/kg, compound pretreatment, with: [18F]T-401 tracer): 0.039 min⁻¹
